Measurements pooled from the literature.
Lines come from different studies, so protocols differ. Numbers after ± are the reported error.
Target: Indoleamine 2,3-dioxygenase 1 (IDO1, Homo sapiens, UniProt P14902)
Sequence of UniProt P14902 (whole entry, looked up): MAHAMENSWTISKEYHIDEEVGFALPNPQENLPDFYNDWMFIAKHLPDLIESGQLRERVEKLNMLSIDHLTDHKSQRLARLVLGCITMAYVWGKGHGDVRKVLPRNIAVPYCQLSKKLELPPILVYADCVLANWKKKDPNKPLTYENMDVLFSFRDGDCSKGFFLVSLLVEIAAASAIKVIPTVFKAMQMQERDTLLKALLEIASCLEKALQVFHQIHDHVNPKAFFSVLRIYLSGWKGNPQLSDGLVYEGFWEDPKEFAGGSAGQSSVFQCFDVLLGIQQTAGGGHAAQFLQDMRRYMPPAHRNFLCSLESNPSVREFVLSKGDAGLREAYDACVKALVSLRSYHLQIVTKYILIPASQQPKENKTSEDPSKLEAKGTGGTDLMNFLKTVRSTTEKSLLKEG

With `OCCOCCOCCOCCOCCOCCOCCOCCNCCNc1nonc1/C(=N/O)Nc1ccc(F)c(Br)c1` the IC50 was 3.82 µM (kynurenine production, inhibitor; HeLa).
The IC50 of `CCN(c1ccccc1)c1nc(Cl)nc2[nH]ncc12` is reported as greater than 1000 µM (inhibitor).
With `COC1=Cc2c(cc(O)c3cc(C)c(OC)cc23)C(C)(C)C1=O` the IC50 was 18.4 µM (kynurenine production; HEK293 expressing human IDO1; 12 h).
The IC50 of `O=C(O)c1cc(-c2ccccc2)nc(O)n1` is reported as greater than 500 µM (inhibitor).
For `C[C@@H]1O[C@@H](OCc2cc(O)c3c(c2)[C@H]([C@@H]2OC[C@@H](O)[C@H](O)[C@H]2O)c2cccc(O)c2C3=O)[C@H](O)[C@H](O)[C@H]1O`, the IC50 was 39.4 ± 1.94 µM (kynurenine formation, inhibitor).
For `O=C1CCC(N2Cc3c(NC(=O)COCCOCCNCCNc4nonc4/C(=N/O)Nc4ccc(F)c(Br)c4)cccc3C2=O)C(=O)N1` (stereo not drawn), the IC50 was 9.36 µM (kynurenine production, inhibitor; HeLa).
`Cc1cc(O)c2c(c1)[C@H]([C@@H]1O[C@H](CO)[C@@H](O)[C@H](O)[C@H]1O)c1cccc(O)c1C2=O` gave an IC50 of 44.8 ± 1.32 µM (kynurenine formation, inhibitor).
`N=C(N)SCc1ccc(CSC(=N)N)cc1` gave an IC50 of greater than 30 µM (enzyme activity, inhibitor; together with: 200 µM L-tryptophan).
With `O=C1c2c(O)cccc2[C@H]([C@@H]2O[C@H](CO)[C@@H](O)[C@H](O)[C@H]2O)c2cc(CO)cc(O)c21` the IC50 was 40.3 ± 0.8 µM (kynurenine formation, inhibitor).
For `Cc1cc(O)n(Cc2ccccc2)n1`, the IC50 was greater than 500 µM (inhibitor).
The IC50 of `COc1cc(C)c2c(=O)cc(C[C@@H](C)O)oc2c1[C@@H]1O[C@H](CO)[C@@H](O)[C@H](O)[C@H]1OC(=O)/C=C/c1ccc(O)cc1` is reported as 99.5 ± 2.75 µM (kynurenine formation, inhibitor).
With `N=C(N)SCc1ccccc1CSC(=N)N` the IC50 was 1.71 µM (enzyme activity, inhibitor; together with: 200 µM L-tryptophan).
